{"data": "Assay results gathered from unrelated publications", "KRAS": "GTPase KRas (KRAS, Homo sapiens, UniProt P01116)", "KRAS G12D": "GTPase KRas (KRAS, Homo sapiens, UniProt P01116, G12D)", "note": "Compare with care: the assays were run in different laboratories. pIC50, pKd: −log10 of the molar value."}
{"SMILES": "COCCNc1nc(-c2nccn2C)nc2sc(-c3cccc(OC)c3Cl)c(-c3ccccc3)c12", "target": "KRAS", "assay": "GTP binding, inhibitor, cell-free GTP competition", "setting": "together with: fluorescent GTP 100 nmol/L", "measurement": "pIC50", "result": 5.60}
{"SMILES": "Oc1ccc(C(=NNc2ccccc2)c2ccc(O)cc2)cc1", "target": "KRAS", "assay": "enzyme activity, inhibitor", "measurement": "pIC50", "result": 2.74}
{"SMILES": "Cc1ncsc1-c1ccc(C2(NC(=O)C3CC(O)CN3C(=O)C(NC(=O)c3ccc(COc4c(-c5c(C)c(F)cc6[nH]ncc56)c(C5CC5)cc5c(N6CC7CC6CN7)nc(OC6CCOCC6)nc45)cc3)C(C)C)CC2)cc1 (stereo not drawn)", "target": "KRAS G12D", "assay": "degrader, In-Cell ELISA", "test system": "AsPC-1", "setting": "24 h", "measurement": "DC50", "result": "181 nM"}
{"SMILES": "C=CC(=O)N1C[C@H](C)N(c2nc(OC[C@@]34CCCN3C[C@H](F)C4)nc3c(F)c(-c4ccc(F)c5sc(N)c(C#N)c45)c(C(F)(F)F)cc23)C[C@H]1C", "target": "GTPase KRas, GppNHp; with RAF1 RBD (KRAS, Homo sapiens, UniProt P01116, G12C)", "assay": "KRAS G12C-RAF1 RBD interaction, inhibitor, HTRF", "setting": "GppNHp-bound", "measurement": "pIC50", "result": "> 7.00"}
{"SMILES": "CC[C@H](C)[C@H](N)C(=O)Nc1ccc2nc(Cc3c[nH]c4ccccc34)[nH]c2c1", "target": "KRAS G12D", "assay": "enzyme activity, inhibitor", "measurement": "pIC50", "result": 3.51}
{"SMILES": "Cc1ncsc1-c1ccc(C(CO)NC(=O)C2CC(O)CN2C(=O)C(NC(=O)c2ccc(COc3c(-c4c(C)c(F)cc5[nH]ncc45)c(C4CC4)cc4c(N5CC6CC5CN6)nc(OC5CCOCC5)nc34)cc2)C(C)C)cc1 (stereo not drawn)", "target": "KRAS G12D", "assay": "degrader, In-Cell ELISA", "test system": "AsPC-1", "setting": "24 h", "measurement": "DC50", "result": "106 nM"}
{"SMILES": "Nc1nc2c(-c3c(C(F)(F)F)cc4c(N5CCNCC5)nc(OCC56CCCN5CCC6)nc4c3F)ccc(F)c2s1", "target": "GTPase KRas, GppNHp-bound (KRAS, Homo sapiens, UniProt P01116, G12D)", "assay": "SPR", "setting": "GppNHp-bound KRAS G12D", "measurement": "pKd", "result": 6.28}
{"SMILES": "CC(C)(C)OC(=O)NCCNC(=O)c1ccc2[nH]c(/C(=N/Nc3ccc(F)cc3)c3ccc(O)cc3)nc2c1", "target": "KRAS", "assay": "enzyme activity, inhibitor", "measurement": "pIC50", "result": 2.71}
{"SMILES": "O=C(NCc1c(F)cccc1Cl)c1csc(-c2n[nH]c3ccccc23)c1", "target": "GTPase KRas (KRAS, Homo sapiens, UniProt P01116, G12V)", "assay": "binding, MST", "measurement": "pKd", "result": 7.74}
{"note": "Some of these lines once more:"}
{"SMILES": "C=CC(=O)N1C[C@H](C)N(c2nc(OC[C@@]34CCCN3C[C@H](F)C4)nc3c(F)c(-c4ccc(F)c5sc(N)c(C#N)c45)c(C(F)(F)F)cc23)C[C@H]1C", "target": "GTPase KRas, GppNHp; with RAF1 RBD (KRAS, Homo sapiens, UniProt P01116, G12C)", "assay": "KRAS G12C-RAF1 RBD interaction, inhibitor, HTRF", "setting": "GppNHp-bound", "measurement": "pIC50", "result": "> 7.00"}
